# Measured values from different studies.
# Values joined by “and” are separate records of one study, mostly repeats; a detail may differ. ± gives the spread as reported.
# CASP4: Caspase-4 (CASP4, Homo sapiens, UniProt P49662)
# APP: Amyloid-beta precursor protein (APP, Homo sapiens, UniProt P05067)
# ESR1: Estrogen receptor (ESR1, Homo sapiens, UniProt P03372)
# Nr3c1: Glucocorticoid receptor (Nr3c1, Rattus norvegicus, UniProt P06536)
Molecule,target,test,system,setting,scale,measurement,result
CSVQ,"Protein farnesyltransferase (Rattus norvegicus, UniProt Q02293+Q04631)","substrate, stopped-flow fluorescence",peptide,"pH 7.8, 25 °C, single turnover",,farnesylation rate constant,4.4 ± 0.5 s⁻¹
O=C(Nc1nnc(S(=O)(=O)N2CCOCC2)s1)c1cccc(Br)c1,"GPR32 (Homo sapiens, UniProt O75388)","β-arrestin recruitment, agonist, PathHunter",CHO cells expressing GPR32,concentration not given,relative to: vehicle,efficacy,43%
"Ac-ARGCA-NH2 (N-acetyl, C-amide)","Fibroblast growth factor 2, with pentraxin 3 (Homo sapiens, UniProt P09038)","binding to PTX3, competitor, surface plasmon resonance",peptide,added: 150 nM free FGF2,,ID50,1500 µM
Cc1ccc(C)c(OCCCC(C)(C)C(=O)O)c1,CASP4,,,"33 µM, added: LEHD substrate",relative to: solvent control,remaining activity,23.8%
CC(=O)C(=O)O,"pyc (Rhizobium etli, UniProt Q2K340)","coupling of carboxylation to ATP hydrolysis, activator",,added: saturating acetyl-CoA,,Ka,0.25 mM
COc1cc(C=CC(=O)CC(=O)C=Cc2ccc(O)c(OC(F)(F)F)c2)ccc1O,APP,"Aβ aggregation, SDS-PAGE western blot, measured: Aβ1-42 75-200 kDa band",,"30 µM, 24 h, 37 °C, added: Aβ1-42 10 µM",relative to: DMSO,band density,965 ± 214%
CC(C)C[C@H](NC(=O)[C@H](CO)NC(=O)CNC(=O)[C@H](CCC(=O)O)NC(=O)[C@H](CO)NC(=O)[C@H](CS)NC(=O)[C@@H]1CCCN1C(=O)[C@H](CO)NC(=O)[C@H](CO)NC(=O)[C@@H](NC(=O)[C@H](CC(N)=O)NC(=O)[C@H](Cc1ccccc1)NC(=O)[C@@H](NC(=O)[C@H](Cc1ccccc1)NC(=O)[C@H](C)NC(=O)[C@H](Cc1c[nH]cn1)NC(=O)[C@@H]1CCCN1C(=O)[C@@H](NC(=O)[C@H](COP(=O)(O)O)NC(=O)[C@H](Cc1ccc(O)cc1)NC(=O)[C@H](CCCNC(=N)N)NC(=O)[C@H](Cc1c[nH]cn1)NC(=O)[C@@H](N)CCC(N)=O)[C@@H](C)O)[C@@H](C)O)[C@@H](C)O)C(=O)N[C@@H](CO)C(=O)N[C@@H](CCC(N)=O)C(=O)N[C@@H](CCCNC(=N)N)C(=O)N[C@@H](CCC(N)=O)C(=O)N[C@@H](CCCNC(=N)N)C(=O)N[C@@H](CO)C(=O)N[C@H](C(=O)N[C@@H](COP(=O)(O)O)C(=O)N[C@H](C(=O)N1CCC[C@H]1C(=O)N[C@@H](CC(N)=O)C(=O)N[C@H](C(=O)N[C@@H](Cc1c[nH]cn1)C(N)=O)C(C)C)[C@@H](C)O)[C@@H](C)O,"SFN (Homo sapiens, UniProt P31947)",ITC,,"concentration not given, pH 7.4, 25 °C, exothermic, sign omitted, added: protein 50 µM",,binding enthalpy,15.8 ± 0.239 kcal/mol
CC(=O)N[C@@H](CCC(=O)O)C(=O)N[C@H](C(=O)N[C@@H](CC(C)C)C(=O)N[C@H](C(=O)N[C@@H](CCCNC(=N)N)C(=O)N1CCC[C@H]1C(=O)N[C@@H](CCCCN)C(=O)N1CCC[C@H]1C(=O)N[C@@H](CC(C)C)C(=O)N[C@@H](CC(C)C)C(=O)N[C@@H](CC(C)C)C(=O)N[C@@H](CCCCN)C(=O)N[C@@H](CC(C)C)C(=O)N[C@@H](CC(C)C)C(=O)N[C@@H](CCCCN)C(=O)N[C@@H](CO)C(=O)N[C@H](C(=O)NCC(=O)N[C@@H](C)C(=O)N[C@@H](Cc1ccc(O)cc1)C(N)=O)C(C)C)C(C)C)[C@@H](C)O,"Protein S100-B (Homo sapiens, UniProt P04271)","binding, NMR line shape, Kd from ITC",,"35 °C, low salt",,koff,140 ± 30 s⁻¹
CNC(=O)c1cc(Oc2ccc(NC(=O)Nc3ccc(Cl)c(C(F)(F)F)c3)cc2)ccn1,"ABCC2 (Homo sapiens, UniProt Q92887)","stimulated ATPase activity, inhibitor",membrane vesicles,"0.14 to 300 µM, 10 min",,ATPase activity,inhibited
O=Cc1ccc(O)cc1,UGT (rat),"4-MU glucuronidation, inhibitor",rat liver microsomes,,,lowest inhibitory concentration,≥ 1 µM
CC(C)Cc1nn(C)c(=O)c2c(SCCCO)n(Cc3cccc4ccccc34)cc12,"Monocarboxylate transporter 1 (Slc16a1, Mus musculus, UniProt P53986)",inhibitor,MCF7 expressing Slc16a1,added: 14C-lactate,,lactate uptake,inhibited
"Ac-GPSLNPFDEED-NH2 (N-acetyl, C-amide)","EHD1 EH domain, mouse",ITC,peptide,"pH 7.0, 20 °C, 0 mM KCl, first titration",,ΔG,-7.95 kcal/mol
CC[C@H](C)[C@H](NC(=O)[C@H](Cc1c[nH]c2ccccc12)NC(=O)[C@@H]1CCCN1C(=O)[C@@H]1CCCN1C(=O)[C@H](Cc1ccccc1)NC(=O)[C@H](CO)NC(=O)CNC(=O)[C@H](CCCNC(=N)N)NC(=O)[C@H](CCCNC(=N)N)NC(=O)[C@H](CCCNC(=N)N)NC(=O)[C@H](CCCNC(=N)N)NC(=O)[C@H](CCCNC(=N)N)NC(=O)[C@@H](N)CCCNC(=N)N)C(=O)N[C@@H](CCC(N)=O)C(=O)N[C@@H](CCC(N)=O)C(=O)N[C@H](C(=O)N[C@@H](CCCNC(=N)N)C(=O)N[C@H](C(=O)O)C(C)C)[C@@H](C)O,"Disks large homolog 4, PDZ3 domain (Homo sapiens, UniProt P78352)","binding, surface plasmon resonance",,"pH 7.5, 25 °C",,kon,29000 M⁻¹ s⁻¹
LHITMPFSSPMEAELVRR (LAGE-1 (90-107); sequence looked up),HLA-DPB1*0401,"peptide binding, biotinylated peptide competition",peptide,,"relative to: peptide over reference peptide, lower = stronger binding",relative IC50,3270
CC[C@@H](C)[C@@H](NC(=O)[C@@H](NC(=O)[C@@H](N)C(C)C)C(C)C)C(=O)N[C@@H](C)C(N)=O,APP,"amyloid aggregation, inhibitor, fluorescence",,"4 µM, 24 h",,inhibition,25.3%
"Ac-YESTNPFTAK-NH2 (N-acetyl, C-amide)","EHD1 EH domain, mouse",ITC,peptide,"pH 7.0, 20 °C, 0 mM KCl, first titration",,ΔG,-5.16 kcal/mol
Cc1c(C)c2c(c(C)c1O)CCC(C)(C(=O)O)O2 (centres unmarked),"NADH:cytochrome c oxidoreductase, rat",,lysed brain mitochondria,"1 mM, added: dopamine 200 µM plus tyrosinase",,protection of complex I/III activity,no effect
CCN(c1ccc(OC)cc1)S(=O)(=O)C1CC2OC1C(c1ccc(O)cc1)=C2c1ccc(O)cc1 (centres unmarked),ESR1,"reporter gene, antagonist",HepG2,added: estradiol 10 nM,"relative to: E2 response, negative is inverse agonism",efficacy,3 ± 1%
CCCCc1nc2c([nH]1)c(=O)n(C)c(=O)n2C,Nr3c1,"reporter gene, antagonist, MMTV-luciferase",T47D/A1-2,"10 µM, 24 h, added: 5 nM dexamethasone",relative to: maximal activity,remaining activity,121%
CN(Cc1cnc2nc(N)nc(N)c2n1)c1ccc(C(=O)N[C@@H](CCC(=O)O)C(=O)O)cc1,"SLC19A1 (Homo sapiens, UniProt P41440, S313T)","transport, substrate",K562 transfected (K500E),"180 s, 37 °C",,Vmax,0.81 ± 0.14 pmol/mg protein/min
Oc1ccc(/C=C/c2cc(O)cc(O)c2)cc1,CASP4,,,"33 µM, added: LEHD substrate",relative to: solvent control,remaining activity,7.48%
CN(c1ccccc1Cl)S(=O)(=O)C1CC2OC1C(c1ccc(O)cc1)=C2c1ccc(O)cc1 (centres unmarked),ESR1,"reporter gene, antagonist",HepG2,added: estradiol 10 nM,"relative to: E2 response, negative is inverse agonism",efficacy,41 ± 1%
ASTDTLQAETDQLEDEKYALQTEIANLLKEKEKLGAP,"Transcription factor Jun (Homo sapiens, UniProt P05412, S292Y)",isothermal titration calorimetry,peptide,"concentration not given, pH 7, 20 °C",,binding stoichiometry,1.1 ± 0.01
CC[C@H](C)[C@H](NC(=O)[C@H](CC(C)C)NC(=O)[C@H](CC(C)C)NC(=O)CNC(=O)[C@H](Cc1ccc(O)cc1)NC(=O)[C@H](CCCNC(=N)N)NC(=O)[C@H](CO)NC(C)=O)C(=O)N[C@@H](CCCCN)C(=O)N[C@@H](C)C(=O)N[C@@H](Cc1ccccc1)C(=O)N[C@@H](CO)C(=O)N[C@@H](CCSC)C(=O)N[C@H](C(=O)N[C@@H](C)C(=O)N[C@@H](C)C(=O)N[C@@H](CCC(=O)O)C(=O)N[C@H](C(=O)N[C@@H](C)C(=O)N[C@@H](CCCNC(=N)N)C(=O)N[C@@H](CCCNC(=N)N)C(=O)N[C@H](C(=O)N[C@@H](CCCNC(=N)N)C(=O)N[C@@H](CCC(=O)O)C(=O)N[C@@H](Cc1ccccc1)C(=O)N[C@@H](CCCNC(=N)N)C(N)=O)[C@@H](C)O)[C@@H](C)O)[C@@H](C)O,calmodulin 1-148 sites I and II,"calcium binding, Phe fluorescence titration",,"12 µM, pH 7.4, 22 °C, added: 6 µM calmodulin",,apparent ΔG1,-6.61 ± 0.5 kcal/mol
O=Cc1c[nH]c2ccccc12,"AHR (Homo sapiens, UniProt P35869)","reporter gene, agonist",HepG2 40/6 luciferase reporter,4 h,relative to: 10 nM TCDD,EC25,110 µM
CCCSc1nc2c([nH]1)c(=O)n(C)c(=O)n2C,Nr3c1,"reporter gene, antagonist, MMTV-luciferase",T47D/A1-2,"10 µM, 24 h, added: 5 nM dexamethasone",relative to: maximal activity,remaining activity,101%
CSCC[C@H](NC(=O)NC1(c2ccccc2)CCN(Cc2cncn2Cc2ccc(-n3cc(COCCCCCCNC(=O)c4ccc(N)cc4)nn3)cc2)CC1)C(=O)O,"Geranylgeranyl transferase type I (Homo sapiens, UniProt P49354+P53609)","enzyme activity, inhibitor, fluorescence",,added: dansyl-K-Ras C-terminal peptide,relative to: guanidyl-gallate derivative,relative potency,~230
BODIPY FL GTP,"Ras-related protein Rab-7a (Canis lupus familiaris, UniProt P18067)",nucleotide dissociation,,added: BODIPY FL nucleotide 500 nM chased by GTP 1 mM,,koff,0.0066 s⁻¹
O=S(=O)(O)c1cc(N=C=S)ccc1CCc1ccc(N=C=S)cc1S(=O)(=O)O,"SLC4A1 (Homo sapiens, UniProt P02730)",chloride exchange,human resealed ghosts,"0 °C, no chloride gradient, added: chloride 60 mM both sides",,ID50,0.13 µM and 0.16 µM and 0.14 µM
COc1ccc(-n2nc(C(N)=O)c3c2C(=O)N(c2ccc(N4CCCCC4=O)cc2)CC3)cc1,"F10 (Bos taurus, UniProt P00743)",chromogenic anti-FXa,"healthy humans, plasma","2.5 mg twice daily, day 4 steady state, geometric mean, LMWH-calibrated",,trough plasma anti-factor Xa activity,0.24 IU/mL
COc1cc2nc(N3CCN(C(=O)c4ccco4)CC3)nc(N)c2cc1OC,CASP4,,,"33 µM, added: LEHD substrate",relative to: solvent control,remaining activity,13.3%
Cc1ccc(C(=O)C2=C(O)C(=O)N(CC(C)O)C2c2cc(C(F)(F)F)cc(C(F)(F)F)c2)cc1 (centres unmarked),"Protein S100-A10, with annexin A2 (Homo sapiens, UniProt P60903)","S100A10-annexin A2 binding, inhibitor, coimmunoprecipitation",MDA-MB-231 cell lysate,50 µM,,complex loss,~70%
